Measured values pooled from the literature.
A part holds a random share of what one study measured.
Chain of UniProt P10721 (whole entry, unmodified, looked up): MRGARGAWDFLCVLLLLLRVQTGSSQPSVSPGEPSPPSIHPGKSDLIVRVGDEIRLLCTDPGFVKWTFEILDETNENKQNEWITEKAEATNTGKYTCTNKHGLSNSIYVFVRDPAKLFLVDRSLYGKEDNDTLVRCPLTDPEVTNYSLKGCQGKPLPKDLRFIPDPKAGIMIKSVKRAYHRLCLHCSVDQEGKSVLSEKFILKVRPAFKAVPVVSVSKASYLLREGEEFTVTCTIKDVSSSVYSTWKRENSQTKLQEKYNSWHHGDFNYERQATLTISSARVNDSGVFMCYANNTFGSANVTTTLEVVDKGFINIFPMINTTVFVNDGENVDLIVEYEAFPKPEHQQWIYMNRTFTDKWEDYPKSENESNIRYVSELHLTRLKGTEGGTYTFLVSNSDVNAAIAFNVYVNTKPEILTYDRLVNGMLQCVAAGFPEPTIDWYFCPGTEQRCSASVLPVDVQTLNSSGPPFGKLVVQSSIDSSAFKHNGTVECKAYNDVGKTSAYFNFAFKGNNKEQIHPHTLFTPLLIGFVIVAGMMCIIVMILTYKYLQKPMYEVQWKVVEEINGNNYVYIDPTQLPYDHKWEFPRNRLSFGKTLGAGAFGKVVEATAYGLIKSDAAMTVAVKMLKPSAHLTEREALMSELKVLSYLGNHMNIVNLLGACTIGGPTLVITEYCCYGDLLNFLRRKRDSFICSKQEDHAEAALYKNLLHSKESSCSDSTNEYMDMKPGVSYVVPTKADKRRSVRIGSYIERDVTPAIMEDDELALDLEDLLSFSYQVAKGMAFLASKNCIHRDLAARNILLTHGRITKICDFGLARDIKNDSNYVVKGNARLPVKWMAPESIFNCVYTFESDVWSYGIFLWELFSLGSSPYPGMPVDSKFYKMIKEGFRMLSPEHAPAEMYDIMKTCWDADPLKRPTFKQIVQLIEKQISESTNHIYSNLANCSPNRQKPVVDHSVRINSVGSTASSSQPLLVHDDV
Chain of UniProt Q9UK32 (whole entry, looked up): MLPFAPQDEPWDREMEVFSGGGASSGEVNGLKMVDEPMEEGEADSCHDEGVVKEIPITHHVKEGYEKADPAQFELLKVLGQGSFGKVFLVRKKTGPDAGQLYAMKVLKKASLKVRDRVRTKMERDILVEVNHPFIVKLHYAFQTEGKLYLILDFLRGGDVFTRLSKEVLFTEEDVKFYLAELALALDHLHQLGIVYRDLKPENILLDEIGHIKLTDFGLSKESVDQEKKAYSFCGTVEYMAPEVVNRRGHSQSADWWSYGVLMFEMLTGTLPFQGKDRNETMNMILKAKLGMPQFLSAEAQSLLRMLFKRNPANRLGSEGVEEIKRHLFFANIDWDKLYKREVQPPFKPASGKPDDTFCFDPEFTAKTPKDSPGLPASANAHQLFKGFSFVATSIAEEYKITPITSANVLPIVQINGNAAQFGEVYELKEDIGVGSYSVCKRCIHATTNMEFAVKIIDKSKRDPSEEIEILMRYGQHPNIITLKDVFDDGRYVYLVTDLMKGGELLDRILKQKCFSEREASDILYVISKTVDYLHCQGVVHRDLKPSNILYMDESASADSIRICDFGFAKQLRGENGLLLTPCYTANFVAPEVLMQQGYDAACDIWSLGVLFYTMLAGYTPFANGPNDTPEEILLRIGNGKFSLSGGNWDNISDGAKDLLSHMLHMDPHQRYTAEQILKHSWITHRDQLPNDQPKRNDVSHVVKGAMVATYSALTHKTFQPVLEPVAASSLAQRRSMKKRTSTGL
Chain of UniProt Q6DT37 (whole entry, looked up): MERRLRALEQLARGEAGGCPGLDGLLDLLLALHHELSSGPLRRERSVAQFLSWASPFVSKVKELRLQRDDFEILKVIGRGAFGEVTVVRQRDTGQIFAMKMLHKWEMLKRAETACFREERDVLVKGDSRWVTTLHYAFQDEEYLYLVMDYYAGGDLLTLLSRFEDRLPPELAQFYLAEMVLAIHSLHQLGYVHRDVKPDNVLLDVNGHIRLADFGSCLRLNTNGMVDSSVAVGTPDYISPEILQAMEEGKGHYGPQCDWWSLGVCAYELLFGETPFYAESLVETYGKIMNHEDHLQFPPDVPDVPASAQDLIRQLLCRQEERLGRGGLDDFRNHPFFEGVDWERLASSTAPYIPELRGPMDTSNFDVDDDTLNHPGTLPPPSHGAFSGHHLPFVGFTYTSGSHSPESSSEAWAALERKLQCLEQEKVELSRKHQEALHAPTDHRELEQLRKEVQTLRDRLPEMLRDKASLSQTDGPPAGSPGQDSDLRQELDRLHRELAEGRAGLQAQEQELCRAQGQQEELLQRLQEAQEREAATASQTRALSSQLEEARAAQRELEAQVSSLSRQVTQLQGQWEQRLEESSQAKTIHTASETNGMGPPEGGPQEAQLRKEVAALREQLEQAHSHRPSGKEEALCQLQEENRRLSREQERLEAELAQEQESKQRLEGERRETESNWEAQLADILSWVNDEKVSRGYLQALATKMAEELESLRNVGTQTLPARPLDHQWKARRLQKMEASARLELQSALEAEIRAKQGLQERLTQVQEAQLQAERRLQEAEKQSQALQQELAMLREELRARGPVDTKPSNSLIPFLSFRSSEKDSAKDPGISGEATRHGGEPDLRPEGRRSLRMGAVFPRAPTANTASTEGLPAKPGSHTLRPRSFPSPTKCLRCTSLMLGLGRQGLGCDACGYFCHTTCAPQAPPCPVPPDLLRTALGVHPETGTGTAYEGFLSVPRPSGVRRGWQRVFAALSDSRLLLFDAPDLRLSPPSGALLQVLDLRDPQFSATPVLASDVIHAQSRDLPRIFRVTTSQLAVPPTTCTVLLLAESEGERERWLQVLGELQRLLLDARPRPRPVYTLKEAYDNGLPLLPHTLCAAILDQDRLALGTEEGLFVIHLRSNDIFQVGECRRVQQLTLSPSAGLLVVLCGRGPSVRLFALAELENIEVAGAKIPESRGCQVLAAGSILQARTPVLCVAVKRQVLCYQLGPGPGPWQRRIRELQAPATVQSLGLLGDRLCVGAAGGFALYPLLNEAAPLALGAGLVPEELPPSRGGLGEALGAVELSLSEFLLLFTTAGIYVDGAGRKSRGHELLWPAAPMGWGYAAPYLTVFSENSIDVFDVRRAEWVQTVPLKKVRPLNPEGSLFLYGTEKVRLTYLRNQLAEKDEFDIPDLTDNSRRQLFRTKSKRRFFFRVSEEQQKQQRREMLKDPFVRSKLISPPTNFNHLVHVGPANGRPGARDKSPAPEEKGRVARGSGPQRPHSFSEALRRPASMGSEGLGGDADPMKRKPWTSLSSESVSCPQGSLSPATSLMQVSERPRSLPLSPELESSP
Chain of UniProt P36897 (whole entry, looked up): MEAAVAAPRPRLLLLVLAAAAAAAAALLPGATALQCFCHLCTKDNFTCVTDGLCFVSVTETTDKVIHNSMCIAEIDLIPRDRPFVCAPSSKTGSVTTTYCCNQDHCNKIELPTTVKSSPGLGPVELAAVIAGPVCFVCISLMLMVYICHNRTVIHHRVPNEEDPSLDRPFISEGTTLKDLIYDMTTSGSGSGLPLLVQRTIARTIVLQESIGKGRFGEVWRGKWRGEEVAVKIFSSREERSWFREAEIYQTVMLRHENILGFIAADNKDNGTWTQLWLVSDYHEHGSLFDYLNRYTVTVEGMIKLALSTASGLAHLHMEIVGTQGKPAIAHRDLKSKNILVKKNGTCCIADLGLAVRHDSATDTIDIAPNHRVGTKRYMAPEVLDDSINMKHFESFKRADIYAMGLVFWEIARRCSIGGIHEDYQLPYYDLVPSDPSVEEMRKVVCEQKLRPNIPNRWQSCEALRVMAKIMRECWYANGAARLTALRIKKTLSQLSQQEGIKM

Block 1 — observed: enzyme activity; mode: inhibitor; tested at: 0.5 µM; baseline: control
Target: Serine/threonine-protein kinase ULK1 (ULK1, Homo sapiens, UniProt O75385)
Chain of UniProt O75385 (whole entry, looked up): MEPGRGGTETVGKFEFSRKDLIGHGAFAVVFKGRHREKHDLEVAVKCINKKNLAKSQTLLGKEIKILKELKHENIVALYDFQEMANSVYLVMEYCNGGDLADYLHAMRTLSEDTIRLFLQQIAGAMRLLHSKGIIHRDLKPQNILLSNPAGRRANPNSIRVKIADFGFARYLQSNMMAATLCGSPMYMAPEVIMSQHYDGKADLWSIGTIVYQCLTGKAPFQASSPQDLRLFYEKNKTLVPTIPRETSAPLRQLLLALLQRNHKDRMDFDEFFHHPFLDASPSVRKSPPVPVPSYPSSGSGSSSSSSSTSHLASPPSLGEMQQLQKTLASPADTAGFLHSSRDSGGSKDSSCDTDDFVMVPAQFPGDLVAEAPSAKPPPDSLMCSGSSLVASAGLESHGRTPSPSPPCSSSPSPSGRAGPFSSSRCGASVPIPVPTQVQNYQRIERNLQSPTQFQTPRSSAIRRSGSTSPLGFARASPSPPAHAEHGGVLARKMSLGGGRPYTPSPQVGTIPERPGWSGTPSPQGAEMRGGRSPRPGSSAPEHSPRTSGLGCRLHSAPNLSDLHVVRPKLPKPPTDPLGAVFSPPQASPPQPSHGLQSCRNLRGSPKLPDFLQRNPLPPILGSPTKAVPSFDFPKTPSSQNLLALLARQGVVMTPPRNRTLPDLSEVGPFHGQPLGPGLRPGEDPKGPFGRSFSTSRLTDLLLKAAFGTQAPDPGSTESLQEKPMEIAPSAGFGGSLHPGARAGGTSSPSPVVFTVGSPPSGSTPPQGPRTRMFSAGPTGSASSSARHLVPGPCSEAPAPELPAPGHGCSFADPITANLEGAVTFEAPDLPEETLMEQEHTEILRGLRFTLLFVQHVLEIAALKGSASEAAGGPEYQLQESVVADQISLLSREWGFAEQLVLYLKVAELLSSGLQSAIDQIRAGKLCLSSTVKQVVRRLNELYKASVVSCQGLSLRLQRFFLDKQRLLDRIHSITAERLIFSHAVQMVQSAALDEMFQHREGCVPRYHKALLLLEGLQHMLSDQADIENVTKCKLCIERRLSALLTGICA
SMILES	remaining activity
FC(F)(F)c1ccc(/C=C/c2nc(COc3ccc(CCCCn4ccnn4)cc3)co2)cc1	87.2%
O=Nc1c(-c2c(O)[nH]c3ccccc23)[nH]c2ccccc12	78.9%
N#C/C(=C(/N)SC1C=CC=CC1)c1cccc(C(O)c2ccncc2)c1 (stereo not shown)	103%
O=C(c1ccccc1)c1ccc(N2CCOCC2)cc1O	98.9%
C[C@@H](N)[C@H]1CC[C@H](C(=O)Nc2ccncc2)CC1	59.3%
CC(C)n1cnc2c(Nc3cccc(Cl)c3)nc(NCCO)nc21	77.6%
N#CC(c1ccnc(NCCc2cccnc2)n1)c1nc2ccccc2s1 (stereo not shown)	98.5%
Nc1nc(Nc2ccc(S(N)(=O)=O)cc2)nn1C(=S)Nc1c(F)cccc1F	5.03%
O=C(O)/C=C/c1cc(Br)c(Br)c(Br)c1Br	108%
NC(=O)c1ccc(-c2nc(-c3ccc4c(c3)OCCO4)c(-c3ccccn3)[nH]2)cc1	103%
CC(C)(C)c1nc2c3cc[nH]c(=O)c3c3cc(F)ccc3c2[nH]1	12.8%
Clc1ccc(Nc2nnc(Cc3ccncc3)c3ccccc23)cc1	107%
CC(C)N(CCC(=O)c1ccc2ccccc2c1)Cc1ccccc1	104%
O=c1c(-c2ccc(F)cc2)c(-c2ccncc2)[nH]n1-c1ccc(Cl)cc1	103%

Block 2 — species: human; sample: microsomes or S9; tested at: 2 µM; time: 0.5 h
Compound	remaining compound [%]
Cc1ccc(Cl)cc1N1CCN(Cc2nc3c([nH]2)c(=O)[nH]c(=O)n3C)CC1	53.9
CC(=O)Nc1cc(O)nc2nc(-c3ccc(C(C)(C)C)cc3)nn12	62.2
Cn1ncc2c(NCCO)nc(Nc3cccc(F)c3)nc21	11.7
NC(N)=Nc1nc(-c2cc3ccccc3o2)cs1	24.9
CC(C)c1ccc(-c2cn3c4ccccc4nc3n2CCN2CCCCC2)cc1	12
COc1cc(Nc2ncnc3c2cnn3-c2ccc(C)cc2C)cc(OC)c1OC	> 100
Cc1noc2nc3c(c(C(=O)N4CCC5(CCCN(C)C5=O)C4)c12)CCC3 (stereo not shown)	70.3
O=c1cc(-c2ccccc2)oc2cc(O)c(O)c(O)c12	> 99
CCCNC(=O)c1cn(-c2cc(-c3nc(C(C)(C)C)no3)ccn2)cn1	66.7
Cc1csc(N2N=C(c3ccccc3)CC2c2ccccc2C)n1 (stereo not shown)	51
Cc1[nH]ncc1CCCNCc1cnc2c(c1)c(C#N)cn2C(C)(C)C	66.9
O=C(C1Cc2cc(Cl)ccc2O1)N1CCCC(O)(c2ccc(F)cc2)CC1 (stereo not shown)	47.3

Block 3 — observed: AlphaScreen signal; technique: AlphaScreen counter screen; sample: His6 peptide without bromodomain; tested at: 50 µM; notes: assay interference check
Structure (SMILES)	inhibition
C[S+]([O-])c1ccc(CSc2nc(-c3ccc(F)cc3)c(-c3ccncc3)[nH]2)cc1 (stereo not shown)	11.2%
COCCCOc1ccnc(C[S+]([O-])c2nc3ccccc3[nH]2)c1C (stereo not shown)	27.9%
COc1ccc(-c2nsc3c(=O)[nH]cnc23)cc1	9.3%
COc1ccc(Nc2ncc(F)c(Nc3ccc(OC)cc3)n2)cc1	17.7%
COc1ccc(-c2csc3nc[nH]c(=O)c23)cc1	4.9%
COc1ccc(-c2nnc3ccc(SCC(=O)N4CCCCCC4)nn23)cc1OC	10.1%
O=C(O)CCC(=O)Nc1ccccc1-c1nc2ccccc2[nH]c1=O	9.55%
CN(C)CC1CCn2cc(c3ccccc32)C2=C(C(=O)NC2=O)c2cn(c3ccccc23)CCO1 (stereo not shown)	91.2%
CC(C)n1cnc2c(NCc3ccccc3O)nc(NCCCO)nc21	8.8%
O=c1[nH]cnc2scc(-c3ccc(Cl)cc3)c12	78.9%
CC(Nc1nc(-c2ccc(F)c(Cl)c2)cnc1N)c1ccccc1 (stereo not shown)	31.2%
Cc1ccc(-c2csc3nc[nH]c(=O)c23)cc1C	16.1%

Block 4 — tested at: 1 µM
SMILES: CC(=O)N1CCC(c2ccc(C(=O)NC3=NCCN3)cc2C(F)(F)F)CC1
target	test	remaining binding [%]
Tyrosine-protein kinase ABL1, non-phosphorylated (ABL1, Homo sapiens, UniProt P00519, F317I)	binding, competition with immobilised ligand	77
Serine/threonine-protein kinase MARK1 (MARK1, Homo sapiens, UniProt Q9P0L2)	cell-free assay, competition with immobilised ligand	100
Phosphatidylinositol 4,5-bisphosphate 3-kinase catalytic subunit alpha isoform (PIK3CA, Homo sapiens, UniProt P42336, I800L)	cell-free assay, competition with immobilised ligand	94
Mast/stem cell growth factor receptor Kit, autoinhibited (KIT, Homo sapiens, UniProt P10721)	cell-free assay, competition with immobilised ligand	91
Fibroblast growth factor receptor 3 (FGFR3, Homo sapiens, UniProt P22607)	cell-free assay, competition with immobilised ligand	100
Mitogen-activated protein kinase 8 (MAPK8, Homo sapiens, UniProt P45983)	cell-free assay, competition with immobilised ligand	84
Serine/threonine-protein kinase Nek2 (NEK2, Homo sapiens, UniProt P51955)	cell-free assay, competition with immobilised ligand	100
TGF-beta receptor type-1 (TGFBR1, Homo sapiens, UniProt P36897)	cell-free assay, competition with immobilised ligand	100
Protein kinase C theta type (PRKCQ, Homo sapiens, UniProt Q04759)	cell-free assay, competition with immobilised ligand	93
Phosphatidylinositol 4-phosphate 5-kinase type-1 gamma (PIP5K1C, Homo sapiens, UniProt O60331)	cell-free assay, competition with immobilised ligand	99
Serine/threonine-protein kinase MRCK gamma (CDC42BPG, Homo sapiens, UniProt Q6DT37)	competition binding	93
Serine/threonine-protein kinase DCLK1 (DCLK1, Homo sapiens, UniProt O15075)	cell-free assay, competition with immobilised ligand	89
Eukaryotic translation initiation factor 2-alpha kinase 1 (EIF2AK1, Homo sapiens, UniProt Q9BQI3)	cell-free assay, competition with immobilised ligand	83
Serine/threonine-protein kinase tousled-like 2 (TLK2, Homo sapiens, UniProt Q86UE8)	cell-free assay, competition with immobilised ligand	100
Ribosomal protein S6 kinase alpha-6, N-terminal kinase domain (RPS6KA6, Homo sapiens, UniProt Q9UK32)	cell-free assay, competition with immobilised ligand	94
Calcium/calmodulin-dependent protein kinase type II subunit gamma (CAMK2G, Homo sapiens, UniProt Q13555)	cell-free assay, competition with immobilised ligand	100
Muscle, skeletal receptor tyrosine-protein kinase (MUSK, Homo sapiens, UniProt O15146)	cell-free assay, competition with immobilised ligand	90
Serine/threonine-protein kinase BRSK2 (BRSK2, Homo sapiens, UniProt Q8IWQ3)	cell-free assay, competition with immobilised ligand	100
Receptor-type tyrosine-protein kinase FLT3 (FLT3, Homo sapiens, UniProt P36888, F691L/ITD)	cell-free assay, competition with immobilised ligand	88
Serine/threonine-protein kinase RIO1 (RIOK1, Homo sapiens, UniProt Q9BRS2)	cell-free assay, competition with immobilised ligand	100
Calcium/calmodulin-dependent protein kinase type 1G (CAMK1G, Homo sapiens, UniProt Q96NX5)	cell-free assay, competition with immobilised ligand	100
Mast/stem cell growth factor receptor Kit (KIT, Homo sapiens, UniProt P10721, V559D)	cell-free assay, competition with immobilised ligand	100
Tyrosine-protein kinase Fgr (FGR, Homo sapiens, UniProt P09769)	cell-free assay, competition with immobilised ligand	100

For quick reference, copied from above (block 2):
Compound	remaining compound [%]
CCCNC(=O)c1cn(-c2cc(-c3nc(C(C)(C)C)no3)ccn2)cn1	66.7
Cc1csc(N2N=C(c3ccccc3)CC2c2ccccc2C)n1 (stereo not shown)	51
Cc1[nH]ncc1CCCNCc1cnc2c(c1)c(C#N)cn2C(C)(C)C	66.9
